Measurements pooled from the literature.
Each numbered part is a random draw from the data of one study; scales do not carry over between parts. Substitutions count along the parent as printed.
Chain of UniProt P36896 (whole entry, looked up): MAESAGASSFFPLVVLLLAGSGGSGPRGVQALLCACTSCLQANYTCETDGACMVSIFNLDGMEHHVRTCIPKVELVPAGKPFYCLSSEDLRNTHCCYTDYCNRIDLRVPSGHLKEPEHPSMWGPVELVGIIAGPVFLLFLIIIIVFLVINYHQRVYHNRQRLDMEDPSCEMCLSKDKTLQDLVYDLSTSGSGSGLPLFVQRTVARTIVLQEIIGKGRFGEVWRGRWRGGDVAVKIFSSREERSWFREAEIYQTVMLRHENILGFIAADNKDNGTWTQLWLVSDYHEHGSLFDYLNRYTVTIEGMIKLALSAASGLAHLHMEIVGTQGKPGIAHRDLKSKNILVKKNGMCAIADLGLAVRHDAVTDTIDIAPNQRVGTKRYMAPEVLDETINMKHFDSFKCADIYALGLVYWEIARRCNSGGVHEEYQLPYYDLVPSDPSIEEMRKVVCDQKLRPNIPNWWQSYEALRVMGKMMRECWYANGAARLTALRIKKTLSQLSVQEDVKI
Chain of UniProt P0C1S8 (whole entry, looked up): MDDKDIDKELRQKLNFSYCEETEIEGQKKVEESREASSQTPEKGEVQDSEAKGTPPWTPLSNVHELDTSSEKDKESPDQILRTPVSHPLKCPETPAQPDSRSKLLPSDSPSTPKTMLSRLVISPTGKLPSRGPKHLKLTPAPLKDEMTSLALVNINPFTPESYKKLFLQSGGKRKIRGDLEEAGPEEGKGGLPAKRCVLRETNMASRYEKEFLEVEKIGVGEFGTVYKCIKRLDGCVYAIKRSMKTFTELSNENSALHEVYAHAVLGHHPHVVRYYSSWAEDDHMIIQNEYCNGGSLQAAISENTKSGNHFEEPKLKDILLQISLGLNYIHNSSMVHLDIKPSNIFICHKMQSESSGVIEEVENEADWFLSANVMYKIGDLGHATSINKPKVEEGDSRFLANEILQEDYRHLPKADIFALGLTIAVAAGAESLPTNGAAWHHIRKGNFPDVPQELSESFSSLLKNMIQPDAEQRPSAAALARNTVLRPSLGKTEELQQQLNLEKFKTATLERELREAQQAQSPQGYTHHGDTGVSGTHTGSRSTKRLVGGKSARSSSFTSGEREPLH
Chain of UniProt Q8NEV4 (whole entry, looked up): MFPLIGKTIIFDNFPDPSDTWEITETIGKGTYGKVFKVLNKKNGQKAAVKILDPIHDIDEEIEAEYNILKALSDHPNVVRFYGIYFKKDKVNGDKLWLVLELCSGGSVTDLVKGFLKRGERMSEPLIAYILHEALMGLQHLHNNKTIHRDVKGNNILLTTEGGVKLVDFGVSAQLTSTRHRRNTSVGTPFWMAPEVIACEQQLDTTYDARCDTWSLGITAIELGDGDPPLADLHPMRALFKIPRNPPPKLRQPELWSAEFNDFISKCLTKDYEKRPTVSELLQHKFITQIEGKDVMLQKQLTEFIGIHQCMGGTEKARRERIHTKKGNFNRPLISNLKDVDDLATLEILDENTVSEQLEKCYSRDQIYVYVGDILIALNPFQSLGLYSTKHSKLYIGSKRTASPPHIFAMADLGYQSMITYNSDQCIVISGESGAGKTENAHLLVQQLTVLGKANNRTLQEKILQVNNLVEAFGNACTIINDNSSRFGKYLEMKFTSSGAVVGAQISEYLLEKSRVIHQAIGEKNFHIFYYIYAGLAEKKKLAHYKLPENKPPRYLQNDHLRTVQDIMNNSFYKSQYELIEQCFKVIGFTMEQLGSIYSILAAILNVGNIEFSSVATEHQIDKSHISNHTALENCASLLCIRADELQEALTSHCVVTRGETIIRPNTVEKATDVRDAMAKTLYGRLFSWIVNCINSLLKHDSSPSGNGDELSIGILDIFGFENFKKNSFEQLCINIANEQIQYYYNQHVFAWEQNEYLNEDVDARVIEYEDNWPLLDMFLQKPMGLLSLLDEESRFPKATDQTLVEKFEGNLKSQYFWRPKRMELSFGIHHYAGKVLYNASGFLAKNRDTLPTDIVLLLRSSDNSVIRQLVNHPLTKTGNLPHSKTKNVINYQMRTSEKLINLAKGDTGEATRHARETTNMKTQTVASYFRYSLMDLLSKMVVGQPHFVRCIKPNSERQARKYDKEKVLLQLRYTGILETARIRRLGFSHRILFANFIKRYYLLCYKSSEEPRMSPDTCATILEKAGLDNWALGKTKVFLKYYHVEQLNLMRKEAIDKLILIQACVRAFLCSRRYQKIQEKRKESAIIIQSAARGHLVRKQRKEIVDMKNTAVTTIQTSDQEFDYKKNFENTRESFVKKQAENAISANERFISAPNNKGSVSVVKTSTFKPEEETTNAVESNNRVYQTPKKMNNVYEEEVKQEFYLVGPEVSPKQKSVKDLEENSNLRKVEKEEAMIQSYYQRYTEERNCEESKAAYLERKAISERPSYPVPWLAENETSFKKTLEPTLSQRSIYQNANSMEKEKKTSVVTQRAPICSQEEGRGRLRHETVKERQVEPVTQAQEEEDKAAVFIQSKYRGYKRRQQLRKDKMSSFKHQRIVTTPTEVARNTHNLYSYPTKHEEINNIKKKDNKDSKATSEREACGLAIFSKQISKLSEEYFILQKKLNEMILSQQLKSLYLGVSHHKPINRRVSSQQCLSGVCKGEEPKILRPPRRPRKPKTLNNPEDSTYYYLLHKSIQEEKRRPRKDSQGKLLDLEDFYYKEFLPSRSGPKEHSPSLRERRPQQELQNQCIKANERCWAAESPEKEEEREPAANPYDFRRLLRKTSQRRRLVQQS
Chain of UniProt P52333 (whole entry, looked up): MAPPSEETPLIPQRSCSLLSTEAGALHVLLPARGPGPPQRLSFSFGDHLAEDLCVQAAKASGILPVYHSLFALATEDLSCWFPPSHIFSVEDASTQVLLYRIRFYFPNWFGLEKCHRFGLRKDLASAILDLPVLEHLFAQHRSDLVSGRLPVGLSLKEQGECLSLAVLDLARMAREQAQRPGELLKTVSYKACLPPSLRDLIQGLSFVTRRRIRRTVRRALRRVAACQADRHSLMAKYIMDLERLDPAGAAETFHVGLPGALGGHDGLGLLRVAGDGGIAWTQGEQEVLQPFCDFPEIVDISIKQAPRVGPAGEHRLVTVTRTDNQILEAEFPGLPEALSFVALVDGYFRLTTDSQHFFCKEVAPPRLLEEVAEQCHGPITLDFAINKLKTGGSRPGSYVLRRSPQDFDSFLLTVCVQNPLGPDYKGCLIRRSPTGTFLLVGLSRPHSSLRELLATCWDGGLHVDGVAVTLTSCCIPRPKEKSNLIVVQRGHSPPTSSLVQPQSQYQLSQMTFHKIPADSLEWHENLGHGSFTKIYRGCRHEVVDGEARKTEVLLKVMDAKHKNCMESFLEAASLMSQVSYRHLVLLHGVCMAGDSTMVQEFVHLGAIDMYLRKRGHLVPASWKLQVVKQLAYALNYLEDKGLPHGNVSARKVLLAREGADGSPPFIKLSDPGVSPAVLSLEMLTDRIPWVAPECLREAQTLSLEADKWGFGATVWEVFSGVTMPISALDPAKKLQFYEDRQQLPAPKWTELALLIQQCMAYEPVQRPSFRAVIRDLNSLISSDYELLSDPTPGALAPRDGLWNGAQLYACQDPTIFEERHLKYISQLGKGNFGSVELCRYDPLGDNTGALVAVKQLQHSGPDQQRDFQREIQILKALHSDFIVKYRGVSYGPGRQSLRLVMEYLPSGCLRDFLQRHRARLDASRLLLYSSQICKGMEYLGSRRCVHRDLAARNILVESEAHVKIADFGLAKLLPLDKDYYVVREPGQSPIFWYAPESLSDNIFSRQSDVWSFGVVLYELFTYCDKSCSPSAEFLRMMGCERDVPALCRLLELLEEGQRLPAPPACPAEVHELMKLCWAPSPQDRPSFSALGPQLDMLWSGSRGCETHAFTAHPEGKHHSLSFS
Chain of UniProt Q99558 (whole entry, looked up): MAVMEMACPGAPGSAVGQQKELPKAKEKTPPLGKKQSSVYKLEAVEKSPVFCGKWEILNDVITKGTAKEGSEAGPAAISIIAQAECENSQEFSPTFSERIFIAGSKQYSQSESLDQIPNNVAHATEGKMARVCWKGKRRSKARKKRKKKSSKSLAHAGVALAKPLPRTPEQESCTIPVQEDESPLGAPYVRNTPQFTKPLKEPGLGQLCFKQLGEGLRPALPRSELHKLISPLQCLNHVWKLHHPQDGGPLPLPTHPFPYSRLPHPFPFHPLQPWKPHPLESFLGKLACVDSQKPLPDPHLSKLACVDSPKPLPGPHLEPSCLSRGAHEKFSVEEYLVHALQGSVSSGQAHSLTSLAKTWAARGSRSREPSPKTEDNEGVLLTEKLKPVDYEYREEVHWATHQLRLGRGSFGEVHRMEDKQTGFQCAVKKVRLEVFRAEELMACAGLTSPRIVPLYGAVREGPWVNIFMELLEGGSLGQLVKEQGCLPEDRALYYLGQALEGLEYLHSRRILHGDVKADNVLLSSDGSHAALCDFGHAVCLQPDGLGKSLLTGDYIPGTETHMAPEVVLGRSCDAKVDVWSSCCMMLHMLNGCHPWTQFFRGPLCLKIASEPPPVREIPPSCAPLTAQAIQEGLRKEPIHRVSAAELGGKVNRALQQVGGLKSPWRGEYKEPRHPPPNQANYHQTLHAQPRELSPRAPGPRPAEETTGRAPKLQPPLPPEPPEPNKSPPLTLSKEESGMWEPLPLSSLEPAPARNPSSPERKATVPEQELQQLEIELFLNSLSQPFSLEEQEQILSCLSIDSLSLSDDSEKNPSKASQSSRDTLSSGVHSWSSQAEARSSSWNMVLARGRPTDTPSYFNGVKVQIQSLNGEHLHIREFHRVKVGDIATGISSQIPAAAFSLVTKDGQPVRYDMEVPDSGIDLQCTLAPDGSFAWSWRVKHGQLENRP

Set 1 — observed: enzyme activity; action: inhibitor; concentration: 0.5 µM; baseline: control
SMILES: O=C1Cc2c([nH]c3ccc([N+](=O)[O-])cc23)-c2ccccc2N1
target	remaining activity
TAOK2 (Homo sapiens, UniProt Q9UL54)	88.9%
WEE1 (Homo sapiens, UniProt P30291)	98.2%
ACVR1B (Homo sapiens, UniProt P36896)	109%
TBK1 (Homo sapiens, UniProt Q9UHD2)	82.4%
MAP2K2 (Homo sapiens, UniProt P36507)	92.5%
JAK3 (Homo sapiens, UniProt P52333)	99.7%
MERTK (Homo sapiens, UniProt Q12866)	83.1%
MST1R (Homo sapiens, UniProt Q04912)	103%
MAP3K5 (Homo sapiens, UniProt Q99683)	101%
GRK7 (Homo sapiens, UniProt Q8WTQ7)	99%
MAP3K14 (Homo sapiens, UniProt Q99558)	132%
FRK (Homo sapiens, UniProt P42685)	97.2%
CSNK1G3 (Homo sapiens, UniProt Q9Y6M4)	90%

Set 2 — target: CEBPD, bZIP domain (human); technique: DHFR protein complementation; sample: yeast; baseline: wild-type JUN-FOS pair; reading: higher = stronger binding
Setting: single substitutions, most at no-binding floor
Parent: JUN, bZIP domain (human); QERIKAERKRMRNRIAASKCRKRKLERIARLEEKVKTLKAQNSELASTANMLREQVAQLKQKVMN; partner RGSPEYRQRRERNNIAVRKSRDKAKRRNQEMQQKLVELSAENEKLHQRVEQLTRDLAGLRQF
Variant	binding fitness
K39V	-1.35 natural log
R30W	-1.36 natural log
A49R	-1.33 natural log
A40N	-1.45 natural log
T48C	-1.39 natural log
I28N	-1.29 natural log
A29Y	-1.41 natural log
E33R	-1.36 natural log

Set 3 — technique: protein-binding microarray; molecule type: hairpin DNA; sample: in vitro; concentration: not given; baseline: not given; reading: higher = stronger binding
Target: Cellular tumor antigen p53, full length (TP53, Homo sapiens, UniProt P04637, residues 1-393)
Setting: whole hairpin DNA, median over replicate spots
Oligonucleotide	median fluorescence [a.u.]
CCACACGTGCGGGCATGCCTTCCTAGGCATGCCCGCACGTGTGGACACTC	10900
CCACACGTCGTGGCATGCCTTCCTAGGCATGCCACGACGTGTGGACACTC (5mC at 35)	7820
CGGACATGCCCGGCCATGTCTCCTGACATGGCCGGGCATGTCCGACACTC (5mC at 14)	10200
CCACCGGTGGTGGCATGCCTTCCTAGGCATGCCACCACCGGTGGACACTC (5mC at 39)	6860
CGGACATGCACGGGCATGTCTCCTGACATGCCCGTGCATGTCCGACACTC	14800
CCACATGTGGTGGCATGCCTTCCTAGGCATGCCACCACATGTGGACACTC	8670
CCACAGGTGGTGGCATGCCTTCCTAGGCATGCCACCACCTGTGGACACTC	7850
CCACACGTGGCGGCATGCCTTCCTAGGCATGCCGCCACGTGTGGACACTC	7510

Set 4 — technique: competition with immobilised ligand; concentration: 1 µM
Compound: C[C@H](c1ccc(F)cc1)N(Cc1cccc(C(=O)O)c1)C(=O)c1cnc2ccccc2c1
target	observed	remaining binding
KDR (Homo sapiens, UniProt P35968)	cell-free assay	100%
KIT (Homo sapiens, UniProt P10721, D816H)	cell-free assay	100%
EPHA1 (Homo sapiens, UniProt P21709)	cell-free assay	100%
STK39 (Homo sapiens, UniProt Q9UEW8)	cell-free assay	82%
Myosin-IIIa (MYO3A, Homo sapiens, UniProt Q8NEV4)	binding	100%
LTK (Homo sapiens, UniProt P29376)	cell-free assay	90%
EGFR (Homo sapiens, UniProt P00533, A750P/del747-749)	cell-free assay	100%
DCLK2 (Homo sapiens, UniProt Q8N568)	cell-free assay	100%
EIF2AK2 (Homo sapiens, UniProt P19525)	cell-free assay	100%
INSRR (Homo sapiens, UniProt P14616)	cell-free assay	84%
WEE2 (Homo sapiens, UniProt P0C1S8)	cell-free assay	100%
DDR2 (Homo sapiens, UniProt Q16832)	cell-free assay	96%
LYN (Homo sapiens, UniProt P07948)	cell-free assay	100%
IKBKE (Homo sapiens, UniProt Q14164)	cell-free assay	79%
CLK2 (Homo sapiens, UniProt P49760)	cell-free assay	98%
